# Experimental data pooled from the literature.
# Lines come from different studies, so protocols differ. Values joined by “and” are separate records of one study, mostly repeats; a detail may differ.
# Cell line: DU-145
Compound,assay,test system,conditions,scale,quantity,value
NNc1nc(-c2ccc(Cl)cc2)c2c(NC(=O)c3ccccc3)nnc-2[nH]1,SRB,,"10 µM, NCI60 single-dose screen, prostate cancer",reference: untreated,cell growth,103%
CN1CCN(c2ccc3[nH]c(-c4ccc5[nH]c(-c6ccc(C(F)(F)F)cc6)nc5c4)nc3c2)CC1,SRB,,"10 µM, 48 h",,growth percent,59.1%
O=c1ccn(Cc2cn(-c3c4ccccc4nc4ccccc34)nn2)c(=O)[nH]1,NCI60 single-dose screen,,10 µM,,growth percentage,74.6%
C#C[C@@]1(O)[C@@H](CO)O[C@@H](n2cc(Br)c3c(N)ncnc32)[C@@H]1O,SRB,,NCI-60 screen,,TGI,> 100 µM
Cn1cncc1C1=CN(c2ncnc3[nH]cnc23)CCS1,,,prostate cancer,,GI50,19.1 µM
CCCCN1CCN(c2ccc3nc(-c4ccc5nc(-c6cc(OC)ccc6OC)[nH]c5c4)[nH]c3c2)CC1,SRB,,"10 µM, 48 h",,growth percent,101%
Cc1cc(C)n(C(=S)[S][Au][PH](CCCCCC[PH]([Au][S]C(=S)n2nc(C)cc2C)(c2ccccc2)c2ccccc2)(c2ccccc2)c2ccccc2)n1,"cell growth, NCI-60 screen",,prostate cancer,,log10 TGI,> -4
CCCN1CCN(c2ccc3nc(-c4ccc5nc(-c6cc(OC)ccc6OC)[nH]c5c4)[nH]c3c2)CC1,SRB,,"10 µM, 48 h",,growth percent,114%
COc1cccc2c1C(=O)c1c(O)c3c(c(O)c1C2=O)C[C@@](O)(C(=O)CO)C[C@@H]3O[C@H]1C[C@H](N)[C@H](O)[C@H](C)O1,WST-1,,"concentration not given, 72 h, highest tested concentration",,maximal cytotoxicity,86%
CC(=O)[C@@H]1CCCN1C(=O)[C@@H]1CCCN1C(=O)OC(C)(C)C,"cell growth, sulforhodamine B",,,,IC50,1.18 µM and 1.8 µM and 0.42 µM
C#C[C@@]1(O)[C@@H](CO)O[C@@H](n2ccc3c(N)ncnc32)[C@@H]1O,SRB,,NCI-60 screen,,TGI,6.55 µM
CCCCN1CCN(c2ccc3[nH]c(-c4ccc5[nH]c(-c6ccc(OCC)c(OCC)c6)nc5c4)nc3c2)CC1,SRB,,"10 µM, 48 h",,growth percent,-86.2%
CC(=O)O[C@H]1C(=O)[C@@]2(C)[C@H]([C@H](OC(=O)c3ccccc3)[C@]3(O)C[C@H](OC(=O)[C@H](O)[C@@H](NC(=O)c4ccccc4)c4ccccc4)C(C)=C1C3(C)C)[C@]1(OC(C)=O)CO[C@@H]1C[C@@H]2O,sulforhodamine B,prostate cancer,NCI60 screen,,TGI,0.16 µM
CCCCCCCCCCCCCC(=O)N[C@@H](CCSC)C(=O)N[C@@H](C)C(=O)N[C@@H](CO)C(=O)N[C@@H](CCCNC(=N)N)C(=O)NCC(=O)N[C@@H](C)C(=O)N[C@@H](CC(C)C)C(=O)N[C@@H](CCCNC(=N)N)C(=O)N[C@@H](CCCNC(=N)N)C(=O)N[C@@H](CS)C(=O)N[C@@H](CC(C)C)C(=O)N[C@@H](CO)C(=O)N1CCC[C@H]1C(=O)NCC(=O)N[C@@H](CC(C)C)C(=O)N1CCC[C@H]1C(=O)N[C@@H](CCCNC(=N)N)C(=O)N[C@@H](CC(C)C)C(=O)N[C@@H](CC(C)C)C(=O)N[C@@H](Cc1c[nH]cn1)C(=O)N[C@@H](CC(C)C)C(=O)N[C@@H](CO)C(=O)N[C@@H](CCCNC(=N)N)C(=O)NCC(=O)N[C@@H](CC(C)C)C(=O)N[C@@H](C)C(N)=O,"cell viability, XTT",prostate,concentration not given,,viability,no effect
O=C1NCCc2[nH]c(-c3ccncc3)cc21,MTS,prostate cancer,,,IC50,2.26 µM
CCCCN1CCN(c2ccc3[nH]c(-c4ccc5[nH]c(-c6ccc(C(F)(F)F)cc6)nc5c4)nc3c2)CC1,SRB,,"10 µM, 48 h",,growth percent,-95.5%
Cc1n[nH]c2nc(-c3ccc(Cl)cc3)c3c(NC(=O)c4ccccc4)nnc-3n12,SRB,,"10 µM, NCI60 single-dose screen, prostate cancer",reference: untreated,cell growth,106%
CCOc1ccc(-c2nc3cc(-c4nc5cc(N6CCN(C)CC6)ccc5[nH]4)ccc3[nH]2)cc1OCC,SRB,,"10 µM, 48 h",,growth percent,11.1%
CCCC(CCC)C(=O)OCc1cn(-c2c3ccccc3nc3ccccc23)nn1,NCI60 single-dose screen,,10 µM,,growth percentage,103%
O=C(Nc1nnc2[nH]c(=S)[nH]c(-c3ccc(Cl)cc3)c1-2)c1ccccc1,SRB,,"10 µM, NCI60 single-dose screen, prostate cancer",reference: untreated,cell growth,100%
COc1cnc2cccc(N3CCc4c(cc(Cn5ccnc5C)cc4-c4cn(C)nc4C(F)(F)F)C3=O)c2c1,"cell growth, inhibitor",,120 h,,EC50,0.0416 µM
O=C(Nc1nnc2n3c(Cc4ccccc4)n[nH]c3nc(-c3ccc(Cl)cc3)c1-2)c1ccccc1,SRB,,"10 µM, NCI60 single-dose screen, prostate cancer",reference: untreated,cell growth,103%
C#CCCCC[C@H](C)C[C@@H](C)C(=O)N1C(=O)OC[C@H]1Cc1ccccc1,"cell growth, sulforhodamine B",,,,IC50,133 µM and 232 µM and 200 µM
CSc1nc(-c2ccc(Cl)cc2)c2c(NC(=O)c3ccccc3)nnc-2[nH]1,SRB,,"10 µM, NCI60 single-dose screen, prostate cancer",reference: untreated,cell growth,106%
CCN(CC)c1ccc(C=NNC(=O)CSc2nc3ccccc3c(=O)n2Cc2ccc(S(N)(=O)=O)cc2)c(O)c1,NCI five-dose screen,,,,TGI,> 100 µM
O=C1NC(c2ccccc2)(c2ccccc2)C(=O)N1Cc1cn(-c2c3ccccc3nc3ccccc23)nn1,NCI60 single-dose screen,,10 µM,,growth percentage,91.2%
CCOC(=O)CSc1nc(-c2ccc(Cl)cc2)c2c(NC(=O)c3ccccc3)nnc-2[nH]1,SRB,,"10 µM, NCI60 single-dose screen, prostate cancer",reference: untreated,cell growth,99.8%

# Repeated from above:
Compound,assay,test system,conditions,scale,quantity,value
CCCC(CCC)C(=O)OCc1cn(-c2c3ccccc3nc3ccccc23)nn1,NCI60 single-dose screen,,10 µM,,growth percentage,103%
O=C(Nc1nnc2[nH]c(=S)[nH]c(-c3ccc(Cl)cc3)c1-2)c1ccccc1,SRB,,"10 µM, NCI60 single-dose screen, prostate cancer",reference: untreated,cell growth,100%
COc1cnc2cccc(N3CCc4c(cc(Cn5ccnc5C)cc4-c4cn(C)nc4C(F)(F)F)C3=O)c2c1,"cell growth, inhibitor",,120 h,,EC50,0.0416 µM
